Experimental data pooled from the literature.
Lines come from different studies, so protocols differ.
UniProt P49759, sequence (whole entry, looked up): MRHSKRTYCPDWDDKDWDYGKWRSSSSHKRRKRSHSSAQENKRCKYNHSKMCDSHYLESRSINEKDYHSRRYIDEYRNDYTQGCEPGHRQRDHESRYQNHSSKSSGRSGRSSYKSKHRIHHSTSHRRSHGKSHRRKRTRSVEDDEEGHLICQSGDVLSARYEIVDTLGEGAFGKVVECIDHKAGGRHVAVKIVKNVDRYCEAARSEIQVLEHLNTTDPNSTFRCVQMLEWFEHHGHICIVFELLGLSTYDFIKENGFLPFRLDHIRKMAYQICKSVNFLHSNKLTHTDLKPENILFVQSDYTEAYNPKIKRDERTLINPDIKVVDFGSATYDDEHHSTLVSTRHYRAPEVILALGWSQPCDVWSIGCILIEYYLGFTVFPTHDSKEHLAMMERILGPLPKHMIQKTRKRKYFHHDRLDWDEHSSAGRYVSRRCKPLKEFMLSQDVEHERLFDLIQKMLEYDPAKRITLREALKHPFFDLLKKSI

Compound | tested on | test | system | setting | quantity | result
CCCCCCCCCCOc1cc2c(O)c(C(=O)OCC)cnc2cc1OCC | Plasmodium falciparum | parasite growth, SYBR Green |  | blood stage | IC50 | < 5.7 nM
CCCCCCNC[C@H](O)c1cc(Cl)cc2c1-c1ccc(Cl)cc1C2 | Plasmodium falciparum | parasite growth, SYBR Green | W2 | 48 h, drug-resistant strain, blood stage | IC50 | 33.3 nM
Cc1c(F)cccc1NC(=N)CC(O)c1cc2c(F)cc(F)cc2c2cc(C(F)(F)F)ccc12 (stereo not drawn) | Plasmodium falciparum | parasite growth, ELISA | 3D7 | 72 h, blood stage | IC50 | 9.3 nM
CCCCCCCCNC[C@@H](O)c1cc(Cl)cc2c1-c1ccc(Cl)cc1C2 | Plasmodium falciparum | parasite growth, SYBR Green | W2 | 48 h, drug-resistant strain, blood stage | IC50 | 5 nM
[2H]c1c([2H])c([C@]2([2H])CCCN2C(=O)C(C)(C)Oc2ccc3cn[nH]c3c2)c([2H])c([2H])c1C([2H])([2H])[2H] | Dual specificity protein kinase CLK1 (CLK1, Homo sapiens, UniProt P49759) | binding, competition with immobilised ligand |  | 1 µM | remaining binding | 68%
CCSc1nnc(C2CCCN(CC(=O)Nc3cc(C(F)(F)F)ccc3Cl)C2)n1CC (stereo not drawn) | Plasmodium falciparum | parasite growth, SYBR Green | 3D7 | 72 h | EC50 | 3550 nM
O=C1C(NCCc2ccc(O)cc2)=CC2=NCCc3c[nH]c1c32 | Plasmodium falciparum | parasite growth, SYBR Green | 3D7 | blood stage | IC50 | 196 nM
CCCCNCC(O)c1cc(Cl)cc2c1-c1ccc(Cl)cc1C2 (racemic) | Plasmodium falciparum | parasite growth, SYBR Green | W2 | 48 h, drug-resistant strain, blood stage | IC50 | 11.5 nM
NC1=CC2=NCCc3c[nH]c(c32)C1=O | Plasmodium falciparum | parasite growth, SYBR Green | 3D7 | blood stage | IC50 | 255 nM
CC(c1ccc(Cl)c(Cl)c1)c1nn2c(-c3ccccc3F)nnc2s1 (stereo not drawn) | Plasmodium falciparum | parasite growth, SYBR Green | 3D7 | 72 h | EC50 | 117 nM
C[N+]1=C2C=C(N/C=C/c3ccc(O)cc3)C(=O)c3[nH]cc(c32)CC1 | Plasmodium falciparum | parasite growth, SYBR Green | 3D7 | blood stage | IC50 | 116 nM
Cc1nc(Nc2ccc(S(F)(F)(F)(F)F)cc2)c2c(C)noc2n1 | Plasmodium falciparum | parasite growth, SYBR Green | 3D7 | 72 h | EC50 | 930 nM

For quick reference, copied from above:
Compound | tested on | test | system | setting | quantity | result
NC1=CC2=NCCc3c[nH]c(c32)C1=O | Plasmodium falciparum | parasite growth, SYBR Green | 3D7 | blood stage | IC50 | 255 nM
